Measured values from different studies.
Protocols differ between the studies behind these lines. Values after ≈ are worked out from the molar mass of the structure shown.
Organism: Candida parapsilosis

SMILES	assay	test system	conditions	scale	quantity	result
N#CC(=C1C=CC(=NOC(=O)OCc2ccccc2)C=C1)c1ccccc1	broth dilution	ATCC 22099	48 h, 37 °C		MFC	64 µg/mL (≈ 180 µM)
COc1ccc(N/N=C/c2ccc(-c3cccc(/C=N/Nc4ccc(OC)cc4)c3)cc2)cc1		ATCC 22019		baseline: mammalian CC50 over MIC	selectivity index	< 0.6
CC(=O)N1CCN(c2ccc(OCC3COC(Cn4ccnc4)(c4ccc(Cl)cc4Cl)O3)cc2)CC1 (stereo not drawn)	broth microdilution	CGMCC 2.399, RPMI-1640	48 h, 30 °C		MIC	4 µM
C(=N\Nc1ccccc1)/c1ccc(-c2ccc(/C=N/Nc3ccccc3)cc2)cc1		ATCC 22019		baseline: mammalian CC50 over MIC	selectivity index	< 0.6
OC(Cn1cncn1)(Cn1cncn1)c1ccc(F)cc1F	broth microdilution	CGMCC 2.399, RPMI-1640	48 h, 30 °C		MIC	4 µM
NOCC(=O)O		CP1			MIC	1000 µg/mL
O=C1/C(=C/c2cc(O)cc(O)c2)Oc2cc(O)cc(O)c21	broth microdilution		24 and 48 h, RPMI-1640 medium		MIC	> 128 µg/mL
CCOC(=O)CON		CP1			MIC	32 µg/mL
CC(=O)ON=C1C=CC(=C(C#N)c2ccccc2)C=C1	broth dilution	ATCC 22099	48 h, 37 °C		MIC	16 µg/mL

A few entries again:
SMILES	assay	test system	conditions	scale	quantity	result
C(=N\Nc1ccccc1)/c1ccc(-c2ccc(/C=N/Nc3ccccc3)cc2)cc1		ATCC 22019		baseline: mammalian CC50 over MIC	selectivity index	< 0.6
